# Published values from different studies.
# Lines come from different studies, so protocols differ. “And” joins repeats or separate records; there may be more than shown. ± gives the spread as reported.
SMILES,target or system,assay,system,setting,scale,quantity,result
CS(=O)(=O)CCNCc1ccc(-c2ccc3ncnc(Nc4ccc(OCc5cccc(C(F)(F)F)c5)cc4)c3c2)o1,Trypanosoma brucei,,,unit not given,baseline: pEC50 T. brucei minus pTC50 HepG2,selectivity,1.3
Nc1cccc2c1C(=O)N(C1CCC(=O)NC1=O)C2=O (stereo not drawn),RPMI-8226,"flow cytometry, measured: CD29",,concentration not given,baseline: comparator compound alone,surface marker level,34%
Cn1cc(-c2ccc(-c3cncc(Cl)c3N3CCC4(CCNC4=O)CC3)cc2)cn1,COLO 205,"microarray, measured: c-Myb",,"concentration not given, 4 h",baseline: untreated cells,fold change in expression,-1.37
NC(=O)CCNC(=O)c1ccc([C@H]2[C@@H](F)[C@@H](F)C[C@@H](F)[C@H]2F)cc1,,liver microsome stability,mouse liver microsomes,1 µM,,hepatic clearance,14 mL/min/kg
CCn1cc(-c2cc(Cn3ccnc3)cc3c2CCN([C@H](c2cc(OC)ccn2)C2CC2)C3=O)c(C(F)(F)F)n1,Li-7,"cell growth, inhibitor",,120 h,,EC50,0.172 µM
CN(C)S(=O)(=O)c1cccc(NC(=S)N/N=C/c2ccco2)c1,Mus musculus,"gene silencing, high-content imaging",LDR reporter GFP cells,retest run 1,,maximal activity,37%
CC(C)NCC(O)c1ccc(O)c(O)c1 (stereo not drawn),,,"ventricular cardiomyocytes, C57BL/6 mouse","dose not given, 0.752 s",,sarcomere length,1.72 µm
Cc1cccn2c(=O)c(/C=C3\SC(=S)N(CC(C)C)C3=O)c(NCCCOC(C)C)nc12,Mus musculus,"gene silencing, high-content imaging",LDR reporter GFP cells,retest run 1,,maximal activity,48%
CCn1c(-c2nonc2N)nc2c(C#CC(C)(C)O)nc(O[C@@H](CN)c3ccccc3)cc21,Trypanosoma brucei,,,unit not given,baseline: pEC50 T. brucei minus pTC50 HepG2,selectivity,1.1
CC(C)n1ncc2c(C(=O)NCC3(C)CNC3)cc(C3CC3)nc21,Enterovirus D68,cytopathic effect,"RD, US/IL/14-18952",15 nM,,cell protection,-1.22% and -0.946% and -0.811%
O=C(Nc1ccc(Oc2ccc3nc(NC(=O)c4ccco4)[nH]c3c2)cc1)Nc1cc(C(F)(F)F)ccc1F,Trypanosoma brucei,,,unit not given,baseline: pEC50 T. brucei minus pTC50 HepG2,selectivity,0.6
S=C(Nc1ccccc1)c1ccccn1,Mus musculus,"gene silencing, high-content imaging",LDR reporter GFP cells,retest run 2,,maximal activity,110%
C[C@@H](Oc1cc(-n2cnc3ccc(OC[C@@H](O)CO)cc32)sc1C(N)=O)c1ccccc1Cl,Trypanosoma brucei,,,unit not given,baseline: pEC50 T. brucei minus pTC50 HepG2,selectivity,> 2.7
COc1cnc2cccc(N3CCc4c(cc(Cn5ccnc5C)cc4-c4cn(C)nc4C(F)(F)F)C3=O)c2c1,COLO-741,"cell growth, inhibitor",,120 h,,EC50,1.19 µM
COc1cc(OC)c(/C=C/S(=O)(=O)Cc2ccc(OC)c(NCC(=O)O)c2)c(OC)c1,Trypanosoma brucei,cell growth,,,,EC50,> 3 µM
COc1ccc(C(=O)/C=C/Sc2nc3ccccc3o2)cc1,Mus musculus,"gene silencing, high-content imaging",LDR reporter GFP cells,retest run 2,,maximal activity,45%
O=C(CC1CCOCC1)Nc1ccc(C2CCCCC2)cc1,,,cryopreserved human hepatocytes,1 µM,,hepatic clearance,18 mL/min/kg
CN1CC[C@H](c2c(O)cc(O)c3c(=O)cc(-c4ccccc4Cl)oc23)[C@H](O)C1,Trypanosoma brucei,cell growth,,,,EC50,0.177 ± 0.072 µM
CC(C)C[C@@H](C=O)NC(=O)[C@H](CC(C)C)NC(=O)[C@H](CC(C)C)NC(=O)OCc1ccccc1,Mus musculus,"gene silencing, high-content imaging",LDR reporter GFP cells,retest run 1,,AC50,10 µM
c1coc(-c2n[nH]cc2-c2ccnc3ccccc23)c1,CTK1 (Candida albicans),"kinase binding, MIB/MS competition",Candida albicans lysate,1 µM,baseline: DMSO,log2 fold change,0.04
Cc1ccccc1OCCn1cnc2cc([N+](=O)[O-])ccc2c1=O,Mus musculus,"gene silencing, high-content imaging",LDR reporter GFP cells,retest run 2,,maximal activity,24%
COc1cc2c(cc1Nc1nc(Nc3ccsc3C(N)=O)c3cc[nH]c3n1)N(C(=O)CN(C)C)CCC2,Trypanosoma brucei,,,unit not given,baseline: pEC50 T. brucei minus pTC50 HepG2,selectivity,1.4
CCOC(=O)c1c(NC(=O)CC2Nc3cc(C)c(C)cc3NC2=O)sc(C)c1C (stereo not drawn),Mus musculus,"gene silencing, high-content imaging",LDR reporter GFP cells,retest run 2,,maximal activity,104%
Oc1ccccc1-c1n[nH]cc1-c1ccnc2ccccc12,CTK1 (Candida albicans),"kinase binding, MIB/MS competition",Candida albicans lysate,10 µM,baseline: DMSO,log2 fold change,-0.11

# For quick reference, copied from above:
SMILES,target or system,assay,system,setting,scale,quantity,result
S=C(Nc1ccccc1)c1ccccn1,Mus musculus,"gene silencing, high-content imaging",LDR reporter GFP cells,retest run 2,,maximal activity,110%
CS(=O)(=O)CCNCc1ccc(-c2ccc3ncnc(Nc4ccc(OCc5cccc(C(F)(F)F)c5)cc4)c3c2)o1,Trypanosoma brucei,,,unit not given,baseline: pEC50 T. brucei minus pTC50 HepG2,selectivity,1.3
O=C(CC1CCOCC1)Nc1ccc(C2CCCCC2)cc1,,,cryopreserved human hepatocytes,1 µM,,hepatic clearance,18 mL/min/kg
